{"data": "Measured values pooled from the literature", "note": "Each numbered part is a random draw from the data of one study; scales do not carry over between parts. Changes are numbered by the printed parent chain."}
{"data": "Block 1", "target": "Histone acetyltransferase KAT6A, winged helix 2, GST fusion (KAT6A, Homo sapiens, UniProt Q92794, residues 85-181)", "method": "protein binding microarray", "form": "double-stranded DNA, one strand shown", "medium": "in vitro", "tested at": "not given", "notes": "8-mer, flanks averaged, mean of 2 arrays, mostly near background", "reference": "not given", "reading": "higher = stronger binding", "Residues (chain)": "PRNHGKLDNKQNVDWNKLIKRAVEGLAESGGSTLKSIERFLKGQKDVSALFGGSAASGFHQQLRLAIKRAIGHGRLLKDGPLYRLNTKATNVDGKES"}
{"Sequence": "GCGTGTAA", "E-score": -0.0948}
{"Sequence": "CCAGAACC", "E-score": -0.09}
{"Sequence": "TTTAAAAA", "E-score": 0.221}
{"Sequence": "CCGGTATC", "E-score": 0.00186}
{"Sequence": "AACGGTAC", "E-score": 0.0394}
{"Sequence": "ATAGGTTA", "E-score": -0.124}
{"Sequence": "CCGGGCCG", "E-score": 0.337}
{"Sequence": "GGCCGCGA", "E-score": 0.109}
{"Sequence": "CACGAAGA", "E-score": 0.224}
{"Sequence": "GTCTTGCA", "E-score": 0.113}
{"Sequence": "GGACGCCC", "E-score": 0.0438}
{"Sequence": "ATGTTTGC", "E-score": -0.12}
{"Sequence": "CCGGGCGC", "E-score": 0.252}
{"Sequence": "AGATAAGA", "E-score": 0.0432}
{"Sequence": "AGGTCGAA", "E-score": 0.119}
{"Sequence": "CCGTAAGG", "E-score": -0.0742}
{"Sequence": "TAGCCACA", "E-score": 0.0335}
{"Sequence": "TAACCCAA", "E-score": -0.129}
{"Sequence": "ACTGGCGC", "E-score": 0.182}
{"data": "Block 2", "target": "CCNB3, cyclin fold, Cln2 fusion (human)", "method": "yeast growth competition, sequencing", "medium": "yeast", "notes": "weak parent motif", "reference": "not given", "reading": "higher = stronger binding", "parent": "SLBP docking peptide (human); ARYKRKLLINDFG"}
{"Variant": "I9H", "normalised enrichment score": 0.103}
{"Variant": "K4P", "normalised enrichment score": -0.145}
{"Variant": "L7T", "normalised enrichment score": -0.138}
{"Variant": "R5A L7A", "normalised enrichment score": 0.164}
{"Variant": "Y3N", "normalised enrichment score": 0.304}
{"Variant": "K6V", "normalised enrichment score": 0.457}
{"Variant": "G13H", "normalised enrichment score": 0.0473}
{"Variant": "Y3K", "normalised enrichment score": -0.305}
{"Variant": "I9N", "normalised enrichment score": 0.198}
{"Variant": "A1R", "normalised enrichment score": -0.0803}
{"Variant": "R5E", "normalised enrichment score": 0.144}
{"Variant": "R5Q", "normalised enrichment score": -0.225}
{"data": "Block 3", "target": "Sal-like protein 4, full length isoform B (SALL4, Homo sapiens, UniProt Q9UJQ4-2, residues 1-616)", "method": "universal PBM", "form": "double-stranded DNA, one strand shown", "medium": "in vitro", "tested at": "not given", "notes": "8-mer, flanks averaged, mean of replicates", "reading": "higher = stronger binding", "Target sequence (chain)": "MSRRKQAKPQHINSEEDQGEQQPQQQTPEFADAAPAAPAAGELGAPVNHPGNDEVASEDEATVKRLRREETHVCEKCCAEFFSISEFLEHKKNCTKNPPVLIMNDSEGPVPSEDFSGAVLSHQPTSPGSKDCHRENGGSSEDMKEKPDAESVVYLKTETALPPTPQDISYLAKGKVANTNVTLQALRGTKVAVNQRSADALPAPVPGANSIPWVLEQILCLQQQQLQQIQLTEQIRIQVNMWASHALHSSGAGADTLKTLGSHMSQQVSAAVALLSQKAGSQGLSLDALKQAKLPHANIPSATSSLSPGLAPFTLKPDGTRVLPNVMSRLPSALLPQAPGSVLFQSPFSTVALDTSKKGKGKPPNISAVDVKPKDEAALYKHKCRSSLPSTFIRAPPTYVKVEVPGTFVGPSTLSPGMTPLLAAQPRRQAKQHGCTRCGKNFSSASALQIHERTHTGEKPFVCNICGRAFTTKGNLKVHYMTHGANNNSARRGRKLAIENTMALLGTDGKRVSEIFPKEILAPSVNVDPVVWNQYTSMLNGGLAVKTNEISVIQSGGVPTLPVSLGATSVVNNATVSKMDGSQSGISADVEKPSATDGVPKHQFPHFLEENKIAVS"}
{"Sequence": "AAACTTCC", "E-score": -0.0968}
{"Sequence": "AGCCGCGA", "E-score": -0.338}
{"Sequence": "ACCACCCA", "E-score": -0.0949}
{"Sequence": "AAGCGAGT", "E-score": -0.0457}
{"Sequence": "ACCTGAAA", "E-score": 0.0463}
{"Sequence": "ATTGCGAC", "E-score": 0.0425}
{"Sequence": "CTTATAGA", "E-score": 0.235}
{"Sequence": "ACGTAATC", "E-score": 0.16}
{"Sequence": "AGGCTCTA", "E-score": -0.104}
{"Sequence": "CACAACCC", "E-score": -0.25}
{"Sequence": "AGAGCAAC", "E-score": -0.22}
{"Sequence": "CTGACGAA", "E-score": -0.0209}
{"Sequence": "AGGTGAGG", "E-score": -0.0908}
{"Sequence": "CGATTGAG", "E-score": -0.0544}
{"Sequence": "GTGTGACA", "E-score": -0.0485}
{"Sequence": "ATGGACAA", "E-score": 0.145}
{"Sequence": "CCTCGTCC", "E-score": -0.264}
{"Sequence": "ACTCAGAA", "E-score": 0.134}
{"Sequence": "CTATCCTC", "E-score": 0.00353}
{"data": "Mixed results"}
{"Substance": "PhoQ, residues 284 288 289 292 302 303 TLASMF", "target": "PhoP, residues 12 14 15 18 19 TQAIL (Escherichia coli, UniProt P23836)", "assay": "Sort-seq, refers to: YFP reporter", "system": "E. coli", "setting": "PhoQ-PhoP variant library, added: 10 µM Mg2+", "how to read": "reference: high Mg2+ state, higher = stronger signaling", "quantity": "fold induction", "value": 2.16}
{"note": "Excerpt of the above (block 3):"}
{"Sequence": "AGGCTCTA", "E-score": -0.104}
{"Sequence": "ATTGCGAC", "E-score": 0.0425}
{"Sequence": "ACGTAATC", "E-score": 0.16}
{"Sequence": "CTGACGAA", "E-score": -0.0209}
{"Sequence": "AGCCGCGA", "E-score": -0.338}
{"Sequence": "CTTATAGA", "E-score": 0.235}
{"Sequence": "ACCTGAAA", "E-score": 0.0463}
{"Sequence": "ACCACCCA", "E-score": -0.0949}
